Experimental data from different studies.
Each line is one published result; not all experiments were run side by side.

Under “patients with photopsia”, `O=C1Nc2cc3[nH]nc(-c4ccncc4)c3cc2CN1Cc1ccccc1` is recorded as 11% (CTCAE v4.03; human, relapsed or refractory advanced solid tumours; intravenous, 6.4 mg/kg).
Under “patients with fatigue”, `C=CC(=O)Nc1cc(Nc2nccc(Nc3cc(Cl)c(F)cc3C(C)(C)O)n2)c(OC)cc1N1CC[C@@H](N(C)C)C1` is recorded as 11.1% (human patients; oral, 100 mg, treatment-emergent adverse events).
`COc1ccc(-c2c(-c3ccc(C#N)c(F)c3)nc(N3CCC(N)CC3)n(C)c2=O)cc1F`: “patients with serious TEAE” 0% (item: decreased appetite; human patients; oral, 60 mg, dose expansion).
`C[C@]1(O)C[C@@](N)(c2ccc(-c3nc4n(c3-c3ccccc3)COc3ccncc3-4)cc2)C1`: “patients with grade ≥3 Hyperglycemia TEAE” 14.3% (human, advanced or metastatic solid tumours; intermittent, dose escalation total).
`CCNCCCNC/C=C\CNCCCNCC` — result for “patients with dizziness”: ~10% (human, advanced solid tumours; intravenous, dose not given; baseline: patients).
For `COc1c(C)cnc(Cn2cc(C#CCCOP(=O)(O)O)c3c(Cl)nc(N)nc32)c1C`, “patients with adverse event” read 29% (item: vomiting; human, advanced solid tumours; concentration not given, at least possibly drug-related).
`C[C@@H]1OC(=O)NN=C1c1ccc(-c2ccc(F)cc2)c(C(F)(F)F)c1` — result for “patients with adverse event”: 0% (phase I trial, item: Presyncope worst grade 2; human patients; 20 mg loading then 1 mg daily).
`Cc1cn([C@H]2O[C@@H](CO[P@@](=O)(N[C@@H](C)C(=O)OC(C)C)Oc3ccccc3)[C@H](O)[C@H]2F)c(=O)[nH]c1=O` — result for “patients with decreased platelets”: 0% (item: grade 1/2; human; 25 mg).
Under “patients with laboratory abnormality”, `Cn1nc(NS(C)(=O)=O)c2c(Cl)ccc(-n3c([C@H](Cc4cc(F)cc(F)c4)NC(=O)Cn4nc(C(F)F)c5c4C(F)(F)[C@@H]4C[C@H]54)nc4nc(OCCC(F)(F)F)ccc4c3=O)c21` is recorded as 25% (item: LDL cholesterol grade 1 increase; human; 300 mg once daily, powder in bottle).
`NC(=O)[C@H]1CCN(c2ncnc(N)c2F)C[C@@H]1N1CCC[C@@H](Nc2cc(Cl)cc(C(F)(F)F)c2)C1=O`: “patients with anemia” 100% (human patients; oral, 20.5 mg twice daily, grade ≥3).
Under “patients with adverse event”, `CCN(CCO)CCCC(C)Nc1ccnc2cc(Cl)ccc12` (stereo not shown) is recorded as 14% (human, newly diagnosed glioblastoma; oral, 400 mg/dose, muscle weakness grade 3, with RT and TMZ).
`CN[C@@H](C)C(=O)N[C@H]1CN(S(=O)(=O)c2cccc(S(=O)(=O)N3CC[C@H]4CC[C@@H](C(=O)NC(c5ccccc5)c5ccccc5)N4C(=O)[C@@H](NC(=O)[C@H](C)NC)C3)c2)CC[C@H]2CC[C@@H](C(=O)NC(c3ccccc3)c3ccccc3)N2C1=O` — result for “patients with treatment-related asthenia”: 0% (human, advanced solid tumours; 20 mg).
`Cn1cncc1-c1c(F)cncc1NC(=O)c1c(N)nn2cc(F)cnc12` — result for “patients grade ≥3 Neutrophil count decrease”: 0% (human patients; oral, up to 40 mg once daily).
For `CCN1[C@@H](C(=O)NC23CCC(C(=O)O)(CC2)CC3)[C@H](c2cccc(Cl)c2F)[C@]2(C(=O)Nc3cc(Cl)ccc32)C12CCCCC2`, “patients with adverse event” read 4.8% (item: any-grade treatment-related elevated AST; human, advanced solid tumours; oral, dose not given, phase I, all patients).
Under “patients with pyrexia”, `COc1ncnn2ccc(-c3cnc4nc(C)n(Cc5nnc([C@@H](C)F)o5)c4c3)c12` is recorded as 0% (human; oral, dose not given, grade 4).
For `CCS(=O)(=O)Nc1ccc(Oc2ccc(F)cc2F)c(-c2cn(C)c(=O)c3[nH]ccc23)c1`, “patients with serious adverse event” read 5% (item: Sepsis; human, relapsed/refractory AML; oral, dose not given, trial, with: alone or with venetoclax).
For `CCN(Cc1nc2c(N)nc3cc(-c4cc[nH]n4)ccc3c2[nH]1)C(C)=O`, “patients with adverse event” read 79% (grade 1-2 fever; human; intratumoral, dose not given).
For `Cn1ncc(-c2nc(N[C@H]3CC[C@H](N)CC3)ncc2Cl)c1CC1CC1`, “patients with adverse events” read 3.2% (item: treatment-related Stomatitis grade 3 or higher; human patients phase I; dose not given).
`O=C(c1ccc(F)c(F)c1Nc1ccc(I)cc1F)N1CC(O)([C@@H]2CCCCN2)C1`: “patients with SAE leading to withdrawal” 0% (human patients; oral, dose not given, dose escalation, suspension).

Some of these lines once more:
For `CCS(=O)(=O)Nc1ccc(Oc2ccc(F)cc2F)c(-c2cn(C)c(=O)c3[nH]ccc23)c1`, “patients with serious adverse event” read 5% (item: Sepsis; human, relapsed/refractory AML; oral, dose not given, trial, with: alone or with venetoclax).
`O=C(c1ccc(F)c(F)c1Nc1ccc(I)cc1F)N1CC(O)([C@@H]2CCCCN2)C1`: “patients with SAE leading to withdrawal” 0% (human patients; oral, dose not given, dose escalation, suspension).
`NC(=O)[C@H]1CCN(c2ncnc(N)c2F)C[C@@H]1N1CCC[C@@H](Nc2cc(Cl)cc(C(F)(F)F)c2)C1=O`: “patients with anemia” 100% (human patients; oral, 20.5 mg twice daily, grade ≥3).
